{"data": "Published values collected from several papers", "note": "Lines come from different studies, so protocols differ. ± gives the spread as reported."}
{"SMILES": "O=C(NS(=O)(=O)c1cccs1)c1cc2ccccc2n1Cc1ccc(Br)c2ccccc12", "host": "mouse", "sample": "plasma", "route": "oral", "dose": "1 mg/kg", "AUC(0-inf) [ng·h/mL]": "212 ± 29.3"}
{"SMILES": "Cc1ncsc1-c1ccc(CNC(=O)[C@@H]2C[C@@H](O)CN2C(=O)[C@@H](NC(=O)COCC(C)(COCCOCCOCCNC(=O)C[C@@H]2N=C(c3ccc(Cl)cc3)c3c(sc(C)c3C)-n3c(C)nnc32)COCCOCCOCCNC(=O)C[C@@H]2N=C(c3ccc(Cl)cc3)c3c(sc(C)c3C)-n3c(C)nnc32)C(C)(C)C)cc1", "host": "C57BL/6 mouse, male", "sample": "plasma", "route": "intravenous", "dose": "5 mg/kg", "AUC(0-inf) [ng·h/mL]": 27600}
{"SMILES": "O=C1CCC(N2Cc3cc(C(=O)O)c(F)cc3C2=O)C(=O)N1 (centres unmarked)", "host": "male CD-1 mouse", "sample": "plasma", "route": "oral", "dose": "10 mg/kg of parent drug", "AUC(0-inf) [ng·h/mL]": "617 ± 298"}
{"SMILES": "O=C1C2CC3CC1CC(C(=O)N1CCN(c4ccc([N+](=O)[O-])c5ncccc45)CC1)(C3)C2", "host": "male ICR mouse", "sample": "plasma", "route": "intravenous", "dose": "1 mg/kg", "AUC(0-inf) [ng·h/mL]": 142}
{"SMILES": "C=C(NC(=O)c1csc(-c2nc3c(cc2O)-c2nc(cs2)C(=O)NC(C(C)O)C(=O)NC(=C(C)OC)c2nc(cs2)C(=O)NC2c4nc(cs4)C(=O)NC(COC(=O)c4c5c6c(cccc6n4O)COC(=O)C(OC4CC(C)(O)C(N(C)C)C(C)O4)C2OC5)c2nc-3cs2)n1)C(N)=O (centres unmarked)", "host": "Sprague-Dawley rats, female", "sample": "plasma", "route": "intravenous infusion", "dose": "6 mg/kg", "time": "day 7", "setting": "multiple dosing", "AUC(0-inf) [ng·h/mL]": 1660}
{"SMILES": "O=C(c1ccccc1)N1C(c2ccc(OCC3CCN(CCCF)C3)cc2)c2ccc(O)cc2CC12CC2 (centres unmarked)", "host": "C57BL/6J mouse", "sample": "plasma", "route": "oral", "dose": "25 mg/kg", "setting": "group mean", "AUC(0-inf) [ng·h/mL]": 2930}
{"SMILES": "Fc1cccc(-n2cc(-c3ccccc3)nc2NCc2ccc(C(F)(F)F)c(F)c2)c1", "host": "CD-1 mouse, male", "sample": "intestine", "route": "intraperitoneal", "dose": "25 mg/kg", "AUC(0-inf) [ng·h/mL]": 173000}
{"SMILES": "C/C(N)=N/C(=N\\S(=O)(=O)c1ccc(C(F)(F)F)cc1)N1C[C@H](c2ccccc2)C(c2ccc(Cl)cc2)=N1", "host": "C57BL/6 mouse", "sample": "brain", "route": "intravenous", "dose": "10 mg/kg", "setting": "observed value", "AUC(0-inf) [ng·h/mL]": 547}
{"note": "Excerpt of the above:"}
{"SMILES": "O=C(c1ccccc1)N1C(c2ccc(OCC3CCN(CCCF)C3)cc2)c2ccc(O)cc2CC12CC2 (centres unmarked)", "host": "C57BL/6J mouse", "sample": "plasma", "route": "oral", "dose": "25 mg/kg", "setting": "group mean", "AUC(0-inf) [ng·h/mL]": 2930}
